Results pooled from the literature.
Parts stem from different laboratories: compare values within a part only.
Chain of UniProt Q9C0B0 (30-357, looked up): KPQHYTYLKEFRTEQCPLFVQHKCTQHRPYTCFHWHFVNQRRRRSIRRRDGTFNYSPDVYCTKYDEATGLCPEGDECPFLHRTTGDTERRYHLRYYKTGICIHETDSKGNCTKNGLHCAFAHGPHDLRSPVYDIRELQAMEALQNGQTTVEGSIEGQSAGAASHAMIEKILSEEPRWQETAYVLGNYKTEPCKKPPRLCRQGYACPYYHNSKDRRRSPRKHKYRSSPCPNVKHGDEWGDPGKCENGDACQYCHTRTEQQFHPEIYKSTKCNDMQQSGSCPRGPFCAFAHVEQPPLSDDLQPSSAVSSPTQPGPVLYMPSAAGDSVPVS

Study 1
Target: Histone acetyltransferase KAT6A, winged helix 1, GST fusion (KAT6A, Homo sapiens, UniProt Q92794, residues 1-85)
Technique: protein binding microarray
Molecule type: double-stranded DNA, one strand shown
Medium: in vitro
Tested at: not given
Notes: 8-mer, flanks averaged, mean of 2 arrays, mostly near background
Reference: not given
Direction: higher = stronger binding
Residues (chain): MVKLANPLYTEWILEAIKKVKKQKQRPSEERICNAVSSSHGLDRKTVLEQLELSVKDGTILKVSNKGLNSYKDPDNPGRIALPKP
`CGACGCGC` gave an E-score of 0.417.
`AAATACCA` gave an E-score of -0.252.
With `AAACGAAT` the E-score was -0.143.
`AGATAAGA` gave an E-score of -0.186.
With `AAAGTGCT` the E-score was -0.14.
`ATATGAGC` gave an E-score of -0.0703.
With `AAGTAACG` the E-score was -0.05.
For `CGCGGACC`, the E-score was 0.378.
`TGCGCAAA` has an E-score of 0.2.
The E-score of `CTATTCAC` is reported as -0.0366.
For `ATTTCCGA`, the E-score was -0.0554.
For `ACTCGCCA`, the E-score was -0.163.
`GGGCCTAA` gave an E-score of -0.0233.
With `CCCCTAAA` the E-score was -0.108.

Study 2
Target: RNA binding protein fox-1 homolog 2, RRM domain, GST-SBP tag (RBFOX2, Homo sapiens, UniProt O43251-10, residues 100-194)
Technique: RNA Bind-n-Seq
Molecule type: RNA
Medium: in vitro
Tested at: 365 nM
Notes: natural RNA segment, single round, ends assumed
Reference: no-protein control
Direction: higher = stronger binding
Constant ends, left off below: GGGAGUUCUACAGUCCGACGAUC … UGGAAUUCUCGGGUGCCAA
Target sequence (chain): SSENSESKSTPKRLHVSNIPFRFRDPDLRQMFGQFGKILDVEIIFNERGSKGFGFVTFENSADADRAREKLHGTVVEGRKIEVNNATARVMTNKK
`GUGUUCAUGAUAGUGUAUAUUUUACUACUUUUUGAAUGUUAAUUUUAAAAUAGAAGAUGUCCCACUUGCCAUUAAAUAUAGAAGCCAACUUUUUACCUUUUGAAAUAUGG`: “RBNS enrichment (R)” 0.488.
`CAUCAUUUUACCAAACAUACCGAGAACGAAAACUUCAAGGAUGAUGUUAGAAAAAAAUGUGAUUUAACUAGAACUUGCUGUCUGAUGUUAGCAAAUCAUGGAAUGUUCUG` — result for “RBNS enrichment (R)”: 0.338.
Under “RBNS enrichment (R)”, `CCAGUUUGAUGGAGAAAAAGUCAAAGACGGACAGUGUGUUAAAGAACUGGAGGUGCCUGUGCACACUGGACCCAACAGUCAAAAGACUGCUGACUUGACACGUGACAGUG` is recorded as 0.593.
`CUCCCCCUUUCUGUGCCUGGGAACUGUUUGGUCCAGCUUUAGAACUGUGGUUUUGACUUCCUUAUCUCUUGGGAGAAGCUUCUGUUUUAAGGAAUUUCUCUUCCUUCUUC`: “RBNS enrichment (R)” 0.637.
For `GUGCUGGAUUCAUGCUUCCAGAUGUGAGAUGUGUGUUCUAAUCUGACAGUGUGUUUUGUAAUCUGUCAAUCAGUGUUGGAGAUAUGCCCAGGCUAUUACAGGCAUAUUAU`, “RBNS enrichment (R)” read 2.71.
`GUAACUAUGGCUUUAUGUUGGGUUACUGUUUAAGGAAAGUUGAUCUGGGCCUUUUUAAAAACAUAAUUAUAUACUUUAGAAAUACAAGGGAUUCCGAUAUGUCAGGACCU` — result for “RBNS enrichment (R)”: 0.522.
Under “RBNS enrichment (R)”, `AUUGAACACAUCUGCAAGUACAAUGUCUUGAUCCAAAACAGCAAAUAGGAAAUCAUGUUCUUCCCACCCUGCACCCCAUCUGCACCCCCACAGGGACCCAGUGCAGAAUC` is recorded as 2.
`UACCCUGUCUUCUUGCCUGUGGCCCCCCUCCUUUCUGAAAGUUAGUUCUCUCCGCAUUCUUUAGGAGGAUUCAGGGGCGGCCUAGUGGAAGACAGUGGGCUCCAUGCCUC`: “RBNS enrichment (R)” 0.986.
Under “RBNS enrichment (R)”, `CACUCUGUCCUUUCCUCACCAACUAACAUGUGCCAGCCAGGCAGAGUCUUGUGCUGUUCCCAGAACAGGACGACAGUGAAAAGAACACUCUUGACCCUACACUGAAGGCU` is recorded as 0.344.
`GAAGAAACAACAAAGGCAGGAGAACAGCCACUUUCAGACUUGAAAAUGACAAAACCCUCAGUUGAGCCUGAGCCCCCGGCGCGGGGGCUGCUACACUACAGGACACCCAG`: “RBNS enrichment (R)” 0.275.
`UUGACCUUUUCAAUUUUUUUAAAGUUAUUUUUGAGACAGAGCCUCAUGUAGCCCAGGCUGGCCUUGAGCUCUGUAUGUAUCUGAGGCUAGUCCUGAAUUCCUAACUCUCC` — result for “RBNS enrichment (R)”: 0.674.
`ACUUGUCCAGUGCUUCACAGUGUUGCUAAUCAGUGGAGAAAUACAUGCUUUCAUUAUCAAGUGUAGUCAGCCGUCUGUUGAGGUCAGGUUUCCUUCCGUUAGCUUUUGGG`: “RBNS enrichment (R)” 0.4.

Study 3
Target: Interferon regulatory factor 3, full length, phosphomimetic (IRF3, Homo sapiens, UniProt Q14653, residues 1-427, S386D/S396D/S398D/S402D/T404D/S405D)
Chain of UniProt Q14653 (whole entry, unmodified, looked up): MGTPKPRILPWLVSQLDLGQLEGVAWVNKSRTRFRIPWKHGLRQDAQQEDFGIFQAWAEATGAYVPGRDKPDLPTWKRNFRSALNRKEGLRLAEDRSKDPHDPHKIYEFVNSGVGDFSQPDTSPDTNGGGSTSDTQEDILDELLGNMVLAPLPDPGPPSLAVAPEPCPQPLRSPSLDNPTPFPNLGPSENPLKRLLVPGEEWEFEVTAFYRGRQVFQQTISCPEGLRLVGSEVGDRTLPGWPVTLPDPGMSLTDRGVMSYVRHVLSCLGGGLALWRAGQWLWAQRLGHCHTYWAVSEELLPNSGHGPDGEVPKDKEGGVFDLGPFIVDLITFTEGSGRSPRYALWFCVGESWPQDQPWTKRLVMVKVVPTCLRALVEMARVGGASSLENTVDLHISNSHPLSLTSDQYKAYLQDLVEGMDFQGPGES
Technique: protein-binding microarray
Molecule type: double-stranded DNA, one strand shown
Medium: in vitro
Tested at: 2540 nM top
Notes: 60-bp whole probe
With: salmon DNA 0.4 mg/ml
Reference: random background probes
Direction: higher = stronger binding
Constant ends, left off below: GCCTAGCAC … GTCTTGATTCGCTTGACGCTGCTG
`GACGGTCCCGGTCTCGGGACGTGCTAG` — result for “fitted relative affinity”: 0.459 z-score.
Under “fitted relative affinity”, `GACGGTCTCCTTCTCCAGACGTGCTAG` is recorded as 4.3 z-score.
Under “fitted relative affinity”, `TTAGGACTGGGTTTCGGGTAGTGCTAG` is recorded as 0.889 z-score.
Under “fitted relative affinity”, `GACCGTTTCCTACTGCTGACGTGCTAG` is recorded as 4.19 z-score.
For `GACGACCTCAGTCTCGAGACGTGCTAG`, “fitted relative affinity” read -0.117 z-score.
`TTAGGTATCCTGTTCCTTTAGTGCTAG`: “fitted relative affinity” 2.2 z-score.
Under “fitted relative affinity”, `GACGGGCTCCTTATCCTGACGTGCTAG` is recorded as 0.77 z-score.
`GACGGACTGGAATATCGGGACGTGCTA`: “fitted relative affinity” -0.293 z-score.
For `TTATGACTGGGTCTCGGTTAGTGCTAG`, “fitted relative affinity” read -0.46 z-score.
`TTAGGTTTTCTTTTCCTTTAGTGCTAG`: “fitted relative affinity” 5.39 z-score.
Under “fitted relative affinity”, `GACGGTAACGACTATCGGGACGTGCTA` is recorded as -0.303 z-score.
`TTAGGTCTCGGAATGGGTTAGTGCTAG` — result for “fitted relative affinity”: 0.288 z-score.
Under “fitted relative affinity”, `TCAATTCCCTTTCTCAAACTGTGCTAG` is recorded as 5.16 z-score.
`CACGATATCAGTCTCGAGACGTGCTAG` — result for “fitted relative affinity”: 1.01 z-score.
`TCAAACATCCCAATGGCACTGTGCTAG`: “fitted relative affinity” -0.00958 z-score.
`AACGATCTCAGACTGGAGACGTGCTAG`: “fitted relative affinity” 0.223 z-score.
For `GACGGTCTCGGACTGGAGACGTGCTAG`, “fitted relative affinity” read 0.115 z-score.
For `TTAAATCTCAGACTGGATTAGTGCTAG`, “fitted relative affinity” read 0.0416 z-score.

Study 4
Target: Fragile X messenger ribonucleoprotein 1, C-terminal low-complexity region (Fmr1, Mus musculus, UniProt P35922)
Technique: RNA Bind-n-Seq
Molecule type: RNA
Medium: in vitro
Tested at: 200 nM
Notes: whole 134-nt RNA, ends assumed
With: 150 mM KCl
Reference: input library
Direction: higher = stronger binding
Constant ends, left off below: GGGAGUUCUACAGUCCGACGAUC … UGGAAUUCUCGGGUGUCAAGG
`CAAGUCCUGUGCUACACAUCGUAUGUACCGAAUCGGGGUGGGGAAAGGGGAGGGGAAAGUAUUAUGUUACGCCGUUCGGAUCUGCACUUC` has a log2 enrichment of 1.03.
`AAGUCCUGUGCUACACAUCGUAUGUACCGAAUCGGUUUUUUUGGUGGAAAAAAAGGAAAGUAUUAUGUUACGCCGUUCGGAUCUGCACUU` gave a log2 enrichment of -0.898.
With `UGUGCUACACAUCGUAUGUACCGAAUCGGGGUUUUUGGGGUUUUUUUGGGGAAAAAAAGGGGAAAGUAUUAUGUUACGCCGUUCGGAUCU` the log2 enrichment was 0.437.
`CUCAAGUCCUGUGCUACACAUCGUAUGUACCGAAUCGGUUUGGUUUUUGGAGGAAAGUAUUAUGUUACGCCGUUCGGAUCUGCACUUCCA` has a log2 enrichment of -0.0067.
The log2 enrichment of `CCUGUGCUACACAUCGUAUGUACCGAAUCAAACCCCCCCAAACCCCCAAAUUUUUUUAAAAAAGUAUUAUGUUACGCCGUUCGGAUCUGC` is reported as -0.0528.
`UGGCCCUGGUGGCAUGCGGGGAGGAAGAGGUGGCCUCAUGGGUCGUGGUGGUCCCGGUGGAAUGUUCAGAGGUGGCCGUGGUGGAGACAG` gave a log2 enrichment of -1.61e-05.
The log2 enrichment of `UCCUGUGCUACACAUCGUAUGUACCGAAUCGGGGAAAAAAAGGGGAAAGGGGUUUGGGGAAAGUAUUAUGUUACGCCGUUCGGAUCUGCA` is reported as 0.698.
For `GCAGGAAGUAAAAACAAAUGGAAAUGCUUCGGAUAGUGGCAGGGGUGGGGGUUGCUAAGGAAAGGGUGAAAUGGGAGUGGGUAAAGAGUU`, the log2 enrichment was 0.124.
With `UGGCCCUGGUGGCAUGCGGGGAGGAAGAGGUGGCCUCAUGGAUCGCGGUGGUCCCGGUGGAAUGUUCAGAGGUGGCCGUGGUGGAGACAG` the log2 enrichment was -0.106.
`ACCAUGCAGGUGGGCAUCUUUGGGAAGUGGGGCAAGGGGGGGAUAGGGAGGGGGGUAACACUUUGGGAACAGGUGGUCCCAGGUCGUUUA` has a log2 enrichment of 0.872.
`GUCCUGUGCUACACAUCGUAUGUACCGAAUCGGGGCCCCCGGGGCCCCCGGCCCCCGGGAAAGUAUUAUGUUACGCCGUUCGGAUCUGCA` has a log2 enrichment of -0.505.
The log2 enrichment of `UCAAGUCCUGUGCUACACAUCGUAUGUACCGAAUCGGAGGAAAAAGGAAAAAGGAAAGUAUUAUGUUACGCCGUUCGGAUCUGCACUUCC` is reported as -0.848.
With `UCCUGUGCUACACAUCGUAUGUACCGAAUCGGGGUUUUUGGGGUGGGGUUUUUUUGGGGAAAGUAUUAUGUUACGCCGUUCGGAUCUGCA` the log2 enrichment was 0.855.
`UAACUUUAGAGGAGGAUCUGAUGGAUACGGCAGUGGACGUGGAUUUGGGGAUGGCUAUAAUGGGUAUGGAGGAGGACCUGGAGGUGGCAA` has a log2 enrichment of 0.286.

Further values, each from its own experiment
`GGGAGUUCUACAGUCCGACGAUCUCCUCAACUUGUUCCCGCUUGUGAUCCCUCAAAGUUGGGUCAUACGUCCGUGCCCGAUACCCGAAAUUUUCACUUUUCCACUGAUCAGAGAGACAGACAUUAAAAACAAAAACCGAAGAACAACAGAGGAUUGAGCAUCA` gave a bound/input enrichment of 0.276 ratio (RING finger protein unkempt homolog, zinc fingers 1-6, SBP tag (UNK, Homo sapiens, UniProt Q9C0B0, residues 30-357); RNA Bind-n-Seq; RNA, in vitro; 100 nM, RNA with constant flanks, ends assumed; reference: input RNA pool, higher = stronger binding).

Excerpt of the above (study 4):
With `UGUGCUACACAUCGUAUGUACCGAAUCGGGGUUUUUGGGGUUUUUUUGGGGAAAAAAAGGGGAAAGUAUUAUGUUACGCCGUUCGGAUCU` the log2 enrichment was 0.437.
`CUCAAGUCCUGUGCUACACAUCGUAUGUACCGAAUCGGUUUGGUUUUUGGAGGAAAGUAUUAUGUUACGCCGUUCGGAUCUGCACUUCCA` has a log2 enrichment of -0.0067.
The log2 enrichment of `CCUGUGCUACACAUCGUAUGUACCGAAUCAAACCCCCCCAAACCCCCAAAUUUUUUUAAAAAAGUAUUAUGUUACGCCGUUCGGAUCUGC` is reported as -0.0528.
`UGGCCCUGGUGGCAUGCGGGGAGGAAGAGGUGGCCUCAUGGGUCGUGGUGGUCCCGGUGGAAUGUUCAGAGGUGGCCGUGGUGGAGACAG` gave a log2 enrichment of -1.61e-05.
The log2 enrichment of `UCCUGUGCUACACAUCGUAUGUACCGAAUCGGGGAAAAAAAGGGGAAAGGGGUUUGGGGAAAGUAUUAUGUUACGCCGUUCGGAUCUGCA` is reported as 0.698.
For `GCAGGAAGUAAAAACAAAUGGAAAUGCUUCGGAUAGUGGCAGGGGUGGGGGUUGCUAAGGAAAGGGUGAAAUGGGAGUGGGUAAAGAGUU`, the log2 enrichment was 0.124.
